Experimental data of several laboratories.
Every numbered part comes from another study and shows a few of its results, in no order.

Block 1 — technique: aptamer microarray, sandwich; form: DNA with 2'F-ANA; matrix: in vitro; concentration: 200 nM; added: Cy3 exosite-II aptamer, 400 nM; direction: higher = stronger binding; strand: GGTTGGTGTGGTTGG
Target: Prothrombin, mature alpha-thrombin (F2, Homo sapiens, UniProt P00734)
Setting: whole 15-mer aptamer, many near background
Modification | mean fluorescence intensity
2'F-ANA at 1 3 4 5 7 11 12 13 15 | 69.4 a.u.
2'F-ANA at 2 3 5 6 7 8 9 10 11 12 13 14 15 | 56.9 a.u.
2'F-ANA at 3 4 8 12 13 14 15 | 325 a.u.
2'F-ANA at 1 4 5 6 7 12 13 | 77.4 a.u.
2'F-ANA at 1 2 6 11 14 | 50.8 a.u.
2'F-ANA at 1 2 6 7 9 12 13 15 | 185 a.u.
2'F-ANA at 1 4 6 9 12 14 | 92.7 a.u.
2'F-ANA at 1 2 3 4 5 8 9 10 12 14 | 48 a.u.
2'F-ANA at 2 4 5 7 11 14 15 | 245 a.u.
2'F-ANA at 1 2 3 4 6 7 8 9 11 12 13 15 | 208 a.u.
2'F-ANA at 1 4 6 7 8 9 10 15 | 66.8 a.u.
2'F-ANA at 1 2 3 4 5 10 11 13 15 | 49.5 a.u.
2'F-ANA at 1 2 9 12 14 15 | 62.9 a.u.
2'F-ANA at 1 2 3 6 7 8 10 11 13 15 | 61.3 a.u.
2'F-ANA at 1 2 3 7 8 12 14 15 | 127 a.u.
2'F-ANA at 3 4 5 6 7 10 11 12 14 | 65.5 a.u.
2'F-ANA at 5 6 7 8 10 11 12 | 54.4 a.u.
2'F-ANA at 1 3 4 5 6 11 12 13 14 | 45.8 a.u.
2'F-ANA at 2 5 8 9 10 13 14 15 | 46.1 a.u.
2'F-ANA at 2 9 12 | 799 a.u.
2'F-ANA at 2 3 4 5 7 8 9 10 11 13 14 15 | 48.4 a.u.
2'F-ANA at 2 4 6 8 11 13 14 15 | 71.1 a.u.
2'F-ANA at 1 2 6 8 11 15 | 151 a.u.
2'F-ANA at 1 9 10 11 13 | 51.8 a.u.
2'F-ANA at 1 3 5 7 8 9 11 15 | 138 a.u.

Block 2 — technique: RNA Bind-n-Seq; form: RNA; matrix: in vitro; concentration: 365 nM; relative to: no-protein control; direction: higher = stronger binding
Target: RNA binding protein fox-1 homolog 2, RRM domain, GST-SBP tag (RBFOX2, Homo sapiens, UniProt O43251-10, residues 100-194)
Setting: natural RNA segment, single round, ends assumed
All sequences stand within: GGGAGUUCUACAGUCCGACGAUC … UGGAAUUCUCGGGUGCCAA
Residues (chain): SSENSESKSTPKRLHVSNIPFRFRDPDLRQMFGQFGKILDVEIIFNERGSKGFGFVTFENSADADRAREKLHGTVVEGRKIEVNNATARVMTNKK
Strand | RBNS enrichment (R)
ACAACUGUAGGUAAGGUUGUAAAUUCUGAGGAACAACAACACCACCACCACAACCAUGAGCCUUUCUUCAGUUUGCUCGGGUUGACGCGGGCUGCAGAGCAGCGUCUAGU | 0.293
UAAUUCUCGAAGUGUGGAACAAAGUGACCGAGACAGCAUCCUCAGUCAUCUUUGUCUCCUUCCCUGGGAUGCAGAUACCGAAGUUGCUUUUCCAACUUUCGCCUCCGCUA | 0.203
AAAAAAACUAAUUGUGAUUUCUAGUCUUGCAAAGCUGUAUGCAGUUAGAUGAUGUGACCUCUAAUAUUUAUCUAAUAAAUAUGUAUUCAGAUGAAACCUGUAUAUUAGGU | 0.394
UGGUUACCUACUGAGUAGGCUGCAGUUUUUGUAUGUUAUGAACAUGAAGUUCAUUAUUUUGUGGUUUUAUUUUACUUUGUACUUGUGUUUGCUUAAACAAAGUAACCUGU | 1.08
ACUAAGCCCCUGCCCCUGAGCUCCAGAGCUGUGUGUUUGGGCAAGGAUGGGCGGGGAUUGGCCGGGGCAGGUUGCCUUUACUAGCCAUUGGCCUGUGUCCGCCACUUGGA | 0.294
ACUUAAAAGCAGUGUUAGUGAGUUAGGCAGAGAGAUGAAAGUAAUACAGUCAGUAAGUUUCACUGCGUGCACACUGACACGUUUGAGAUUGUAGGAGGACAUAUAAUUCA | 0.317
ACAGUCAAGAUACAUAGUAAAUGGUAUCAUUUGGAAAUCAGCAUCGUGGGCACUGCUGAGGAAUGAUCCUAGUGGUAGGUCAGAAGAAGAUGCUGUGAACACCAGGACUU | 0.634
GGGACAGGCCUGGAUGAUCUAGCUCAUACCAAAGGACCUUGUUCUGAGAGGUUCUUGCCUGCAGGAGAAGCUGUCACAUCUCAAGCAUGUGAGGCACCGUUUUUCUCGUC | 2.54
UAAAAUUUUAGGACCGAUUUCAGAAAUAGUCAAAGGAGCAACAGAACAUUCAUUGUAUUUUGGUCUUGAGAAAUGCCUAUAGUUUUCCAAAUUAUUCUUGUACAGUUUUA | 1.07
CUGAUACCACCUCCACCGCUGAGCAGUGACCUUCCUCACUUUCUCUUGUCCCAGCUUCUCCCCUGGGGGCCUGAGAGACCCUCACCUUCCUUCUGCCCAUCUUCCAUGUU | 0.594
CUGUGGUGGGUGGCAUAACAAUAAAACUUACUAAGUGGUUAUAGGAUAAACAAACAGUUAUUAGGUCCUUUUACUUUUUUGUUUUGUUUCUAUCUUGUUUUUUUUUUUGU | 0.755
CCCAGGGCUAGCCUUCACUGCCCUAGUGGCAGCGCUUCCCAGGGGUGCUCUCUGGCUCCCAGAUGUCUAGGGCUCCAGACUCCAAGAGGGCUGAGCCUUCUCUUCUGUCU | 0.146

Block 3 — technique: protein binding microarray; form: double-stranded DNA, one strand shown; matrix: in vitro; concentration: not given; relative to: not given; direction: higher = stronger binding
Target: Histone acetyltransferase KAT6A, both winged helices, GST fusion (KAT6A, Homo sapiens, UniProt Q92794, residues 1-181)
Setting: 8-mer, flanks averaged, mean of 2 arrays, mostly near background
Target sequence (chain): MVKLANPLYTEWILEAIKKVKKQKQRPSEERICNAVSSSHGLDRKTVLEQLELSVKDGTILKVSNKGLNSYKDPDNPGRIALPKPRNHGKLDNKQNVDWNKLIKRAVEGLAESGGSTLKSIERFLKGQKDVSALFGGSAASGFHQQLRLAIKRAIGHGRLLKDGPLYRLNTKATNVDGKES
Strand | E-score
ACTTGTTA | -0.0855
GCTGTACC | 0.0337
CTAAATGA | -0.0486
CAGCATCA | -0.212
CAGATAGG | -0.19
CCTTGGAC | -0.132
CGCTGACC | 0.22
GACGCGAA | 0.0976
CTATTAAG | -0.126
ATTACTTG | -0.185
CCACCGGG | 0.109
AGAAGGCT | -0.214
AGAGGTAT | -0.0203
ACAAAAGT | -0.0749
CGGTAGAG | 0.148
GGAGTTGA | -0.0967
TCGCATCA | 0.123
TCCTATAA | -0.0651

Block 4 — technique: universal PBM; form: double-stranded DNA, one strand shown; matrix: in vitro; concentration: 600 nM; direction: higher = stronger binding
Target: Sal-like protein 4, full length isoform A (SALL4, Homo sapiens, UniProt Q9UJQ4, residues 1-1053)
Chain of UniProt Q9UJQ4 (whole entry, looked up): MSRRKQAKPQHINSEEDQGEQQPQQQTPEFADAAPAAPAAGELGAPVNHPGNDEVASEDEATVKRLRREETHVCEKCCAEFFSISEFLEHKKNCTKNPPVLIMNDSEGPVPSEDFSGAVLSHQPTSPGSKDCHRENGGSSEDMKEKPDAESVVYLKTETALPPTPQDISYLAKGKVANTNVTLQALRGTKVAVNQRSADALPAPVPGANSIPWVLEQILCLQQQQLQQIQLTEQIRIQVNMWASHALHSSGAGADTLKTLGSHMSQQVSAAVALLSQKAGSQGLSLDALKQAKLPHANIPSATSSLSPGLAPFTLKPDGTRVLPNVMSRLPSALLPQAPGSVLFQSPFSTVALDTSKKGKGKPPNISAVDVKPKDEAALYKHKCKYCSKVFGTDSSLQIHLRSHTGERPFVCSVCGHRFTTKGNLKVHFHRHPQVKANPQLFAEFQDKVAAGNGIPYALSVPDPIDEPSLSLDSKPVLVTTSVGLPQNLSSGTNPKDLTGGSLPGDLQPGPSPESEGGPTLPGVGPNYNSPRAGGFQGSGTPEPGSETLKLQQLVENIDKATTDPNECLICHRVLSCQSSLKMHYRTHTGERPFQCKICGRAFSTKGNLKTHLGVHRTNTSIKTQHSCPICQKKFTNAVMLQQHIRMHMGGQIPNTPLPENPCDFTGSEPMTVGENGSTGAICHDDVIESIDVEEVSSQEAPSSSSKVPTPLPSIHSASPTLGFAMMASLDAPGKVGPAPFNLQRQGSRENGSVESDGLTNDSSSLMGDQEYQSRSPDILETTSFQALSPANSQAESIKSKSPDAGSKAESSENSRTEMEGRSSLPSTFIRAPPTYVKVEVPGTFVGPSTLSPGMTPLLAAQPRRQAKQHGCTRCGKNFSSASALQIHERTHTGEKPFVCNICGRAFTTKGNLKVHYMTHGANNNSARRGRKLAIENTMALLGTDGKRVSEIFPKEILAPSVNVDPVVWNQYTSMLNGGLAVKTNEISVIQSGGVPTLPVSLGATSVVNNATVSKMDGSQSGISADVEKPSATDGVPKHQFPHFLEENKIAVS
Setting: 8-mer, flanks averaged, mean of replicates
Strand | E-score
ATTAAGGC | 0.115
AGGTAACT | -0.0478
GCTGAGAC | -0.109
ACAGCGGG | -0.163
AAGTTCGT | -0.0651
GGGTCAGA | -0.246
GGTTCCGA | -0.279
GACGTACA | 0.00893
ACGCAACC | -0.0838
CTCAAACA | 0.154
GTACCGAC | -0.228
AAACTCAC | 0.0749
AGTGCTAT | 0.142
CTCAGGAA | -0.156
CATGACCG | -0.105
CGATGAAC | -0.119
AATGTCAA | 0.207
ACTGGGGA | -0.358
AAGGCTTG | -0.0872
CACGACCC | -0.214
CCGTAAGG | -0.191
GTCTTTCA | 0.00613
GATTCAGC | -0.126
CAGCTGGC | -0.259
CTCTCCAA | 0.0402

Block 5 — technique: RNA Bind-n-Seq; form: RNA; matrix: in vitro; concentration: not given; relative to: input RNA pool; direction: higher = stronger binding
Target: RING finger protein unkempt homolog, zinc fingers 1-6, GST-SBP tag (UNK, Homo sapiens, UniProt Q9C0B0, residues 30-357)
Setting: RNA with constant flanks, human-mouse chimeric sites, ends assumed
All sequences stand within: GGGAGUUCUACAGUCCGACGAUC … CAACAGAGGAUUGAGCAUCA
Construct (chain): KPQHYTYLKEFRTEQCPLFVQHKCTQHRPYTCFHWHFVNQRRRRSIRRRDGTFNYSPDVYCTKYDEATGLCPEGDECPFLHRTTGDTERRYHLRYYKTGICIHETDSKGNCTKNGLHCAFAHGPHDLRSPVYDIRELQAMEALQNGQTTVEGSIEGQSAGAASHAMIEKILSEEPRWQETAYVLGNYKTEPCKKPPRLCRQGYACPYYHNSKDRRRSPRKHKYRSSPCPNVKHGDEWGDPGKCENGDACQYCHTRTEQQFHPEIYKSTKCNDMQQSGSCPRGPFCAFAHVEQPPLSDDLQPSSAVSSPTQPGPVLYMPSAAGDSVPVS
Strand | bound/input enrichment [ratio]
CUUAAUGUUAAUAUUUUUGAAUAAAUGUAAAACCAUGGUCUGCUUUUGGUACUACAUGCAUUAAUAAAAGGUUAAGUUUUGUUUUCCACUGAAGUACUAUUUAACAUCUCAGAAAAAAAC | 0.0944
AAUUUCCUGUCAUACUUUUUAGACAUUCACAUCAGACUUACAGAGCAUUGGGCCUCUUUCUAGGUUUGUGUUAUUUCUCAGCUAUGGAUAUGAUCAAAGAGUGAAAAUGCUUAACUAAUG | 0.462
AUGGUUGUGUCUCUUGAGAUCUAAAAACAAGAUGACUUUUCCUGGCACAUAUUUCAAAGCAAAGACUUUGUUGCCUGCUGCUUAUUGUCUAAUUUACAGGGAUAUUUAAUUUUGUCAGGU | 0.216
GCUCCUCCCCGCUCUGCAGCCUGGGGACACUGGGCUGGGACCAGAAUCCAGCUUUCUUUUAAAACUCUCAGUGUAACUGUAUCCCGUUUUUUUCUUUUUUUUUUUUAUAGUGUAUUUUUU | 39.7
CUGGCCUGGCCCUCCCCAGGGGCCUCCUUUCGUAUAGUCACUGCUUCUGCAUCAGAUACUUUCAGCUCCAAGUCCUGACUGGGUGGGGCACCCAUUUCAGGCAGAAGUUGGUGCCCCCCU | 0.2
UCUUUAAAAAAAAAAUUACCUUUUCUGACAGUGCUUUAUGGAGUAAAGAUCCACGUUCAAGCUCAAAGAGCAAAGGCUUUGCACGGAGCUCAAACAUAAAAGAAAGAAAGAUUUCUGAGA | 0.163
AUAAAGGCUAUGUUGAGUGGCCCAGGUCAGUUUGCUGAGAAUGAAACCAACGAGGUCAAUUUUAGAGAGAUCCCCUCACAUGUGCUAUCGAAAGUAUGCAUGUAUUUUACCUACAAGGUC | 0.194
AGAGCCCAGGAUGUUGAUGCUACAAACCCAAAUUACGAAAUUAUGUGUAUGAUCAGAGACUUCAGAGGGAGCUUGGAUUACAGACCCUUAACAACAGCAGAUCCUAUUGAUGAACAUAGG | 0.341
CUGUGUGUGCUGAAUAAAUGGCUUGUAAAGAAGUUUUUCCAAGCUGUAACCCAUGCUGUUAUUAUAGUUGCUGCAAAAUGUCUCUUAUAUUGAUGUUUUUAUUUGUUAACUGAAGGUCUC | 0.309
CAACAGAGUCUAGGAUGGGUUCAUUACAUGAUUCAUGAGCCAGAACCACAUAUUCUUCUCUUUAGACGACCUCUUCCAAAAGAACAACAAAAAUGAAGUGCAGCUGGGGAUCGUCAAUCU | 0.444
CUGGCCUGGCCCUCCCCAGGGGCCUCCUUCUCUGCAUUCACUGCUUCUGCAUCAGAUACUUUCAGCUGCAACUCCCUGCAGGGUGGGGCACCCAUUUCAGGCAGAAGGUUUUGGUACCCU | 0.219

Single results of other studies
Molecule | target | assay | test system | conditions | how to read | endpoint | result
PhoQ, residues 284 288 289 292 302 303 ALASRC | PhoP, residues 12 14 15 18 19 DLLYY (Escherichia coli, UniProt P23836) | Sort-seq, measured: YFP reporter | E. coli | PhoQ-PhoP variant library, added: 10 µM Mg2+ | relative to: high Mg2+ state, higher = stronger signaling | fold induction | 1.62
